Measured values pooled from the literature.
Lines come from different studies, so protocols differ. “And” joins repeats or separate records; there may be more than shown. Numbers after ± are the reported error.
KCNJ13 M125R: Inward rectifier potassium channel 13 (KCNJ13, Homo sapiens, UniProt O60928, M125R)
Inward rectifier potassium channel 4: Inward rectifier potassium channel 4 (Homo sapiens, UniProt P48050)
Urease: Urease (Canavalia ensiformis, UniProt P07374)
Kir1 channel protein: Kir1 channel protein (Aedes aegypti, UniProt L0EQS9)
MAL12: Alpha-glucosidase MAL12 (MAL12, Saccharomyces cerevisiae S288c, UniProt P53341)

Substance | target | test | test system | setting | IC50
C[C@H]1O[C@H](O[C@H]2[C@H](O)[C@@H](O)[C@@H](O[C@H]3[C@H](O)[C@@H](O)C(O)O[C@@H]3CO)O[C@@H]2CO)[C@H](O)[C@@H](O)[C@@H]1N[C@H]1C=C(CO)[C@@H](O)[C@H](O)[C@H]1O (some centres unmarked) | maltase, rat intestine | enzyme activity, inhibitor | – | 45 min, pH 6.8, 37 °C, with: maltose 5 mM | 114 ± 3.68 µg/mL
CC(C)C[C@H](NC(=O)[C@H](CC(N)=O)NC(=O)[C@H](CC(C)C)NC(=O)[C@@H](NC(=O)[C@@H](NC(=O)[C@@H]1CCCN1C(=O)[C@H](CCCNC(=N)N)NC(=O)[C@H](CCCCN)NC(=O)[C@@H]1CCCN1C(=O)[C@H](CCCNC(=N)N)NC(=O)[C@H](CCCNC(=N)N)NC(=O)[C@H](CCCNC(=N)N)NC(=O)[C@H](CCCNC(=N)N)NC(=O)[C@H](CCC(N)=O)NC(=O)[C@H](CCCNC(=N)N)NC(=O)[C@H](CCCNC(=N)N)NC(=O)[C@H](CCCCN)NC(=O)[C@H](CCCCN)NC(=O)[C@H](CCCNC(=N)N)NC(=O)CNC(=O)[C@@H](N)Cc1ccc(O)cc1)[C@@H](C)O)[C@@H](C)O)C(=O)N[C@@H](Cc1ccccc1)C(N)=O | Mitogen-activated protein kinase 8 (MAPK8, Homo sapiens, UniProt P45983) | enzyme activity, inhibitor | – | – | 0.043 µM
CC(C)c1ccc(OCC(O)Cn2c(=N)n(Cc3ccccc3)c3ccccc32)cc1 (centres unmarked) | KCNJ13 M125R | ion flux, inhibitor | – | – | 6.03 µM
Oc1cc(O)c2c(c1)O[C@H](c1ccc(O)c(O)c1)[C@H](O)[C@H]2c1c(O)cc(O)c2c1O[C@H](c1ccc(O)c(O)c1)[C@@H](O)C2 | alpha-glucosidase (Bacillus stearothermophilus) | inhibitor | – | 20 min, pH 6.8, 60 °C, with: pNPG substrate | 11.2 ± 1 µM
CC(O)c1cc(C(=O)N[C@@H](C)Cn2ccc(-c3ccc(C#N)c(Cl)c3)n2)[nH]n1 (some centres unmarked) | Solute carrier organic anion transporter family member 1B1 (SLCO1B1, Homo sapiens, UniProt Q9Y6L6) | transporter uptake, inhibitor | – | – | 16.8 µM
Nc1ncnc2c1ncn2[C@@H]1O[C@H](CSCC[C@H](N)C(=O)O)[C@@H](O)[C@H]1O | Histone-lysine N-methyltransferase 2A, tetrameric core complex (KMT2A, Homo sapiens, UniProt Q03164) | FL-NAH displacement, fluorescence polarization | – | 30 min, tetrameric complex, with: 50 nM FL-NAH | 0.3 ± 0.1 µM
FC(F)(F)Oc1ccc(Oc2ccnc(N3CCC(NC(=S)Nc4cccnc4)CC3)c2Cl)c(Cl)c1 | Lysophosphatidylserine lipase ABHD12 (Homo sapiens, UniProt Q8N2K0) | enzyme activity, inhibitor | – | lysate | ~0.09 µM
O=C(O)c1cc(=O)c2c(OCC(O)COc3cccc4oc(C(=O)O)cc(=O)c34)cccc2o1 | hyaluronidase | enzyme activity, inhibitor, colorimetric p-DAB | – | pH 4.0, 37 °C, with: potassium hyaluronate | 157 µM
N=c1n(Cc2ccccc2)c2ccccc2n1CC(O)COc1ccc(Cl)cc1 (centres unmarked) | Inward rectifier potassium channel 4 | ion flux, inhibitor, fluorescence | – | – | 4.2 µM
Cc1cc(OCC(=O)N/N=C/c2cccc(OCc3cn(Cc4ccccc4)nn3)c2)c2c(C)cc(=O)oc2c1 | Urease | enzyme activity, inhibitor | – | – | 7.93 ± 0.98 µM
Cc1ccc2nc(C3CC3)n(-c3ccc4[nH]c(=O)sc4c3)c2n1 | GRIA1/CACNG8 (Homo sapiens, UniProt P42261+Q8WXS5) | calcium influx, antagonist, FLIPR | HEK293 expressing GluA1o | with: glutamate 100 µM | 0.00141 µM
N#Cc1ccc(OCC(O)Cn2c(=N)n(Cc3ccccc3)c3ccccc32)cc1 (centres unmarked) | Inward rectifier potassium channel 4 | ion flux, inhibitor, fluorescence | – | – | 11.3 µM
Cl.Cl.Cl.Cl.Cl.Cl.N.N.N.N.N.N.N.N.N.N.N.N.N.N.[O-2].[O-2].[Ru+3].[Ru+3].[Ru+4] | Kcnk2 (Mus musculus, UniProt P97438, G152I/I125D) | inhibitor, two-electrode voltage clamp | Xenopus oocytes | C-type gate gain-of-function mutant | 0.154 ± 0.023 µM
COc1cccc2c1C(=O)c1c(O)c3c(c(O)c1C2=O)C[C@@](O)(C(=O)CO)C[C@@H]3O[C@H]1C[C@H](N)[C@H](O)[C@H](C)O1 | DNA | DNA binding, methyl green displacement | – | – | 31.5 ± 1.5 µM
CCOc1ccc(NC(=S)N2CCc3ccccc3C2)cc1 | Urease | enzyme activity, inhibitor, absorbance | – | – | 31.3 µM
Cc1cc(OCC(=O)N/N=C/c2ccc(OCc3cn(Cc4ccccc4)nn3)cc2)c2c(C)cc(=O)oc2c1 | Urease | enzyme activity, inhibitor | – | – | 1.62 ± 0.32 µM
Cc1ccnc2[nH]c(-c3cccc(O)c3)cc(=O)c12 | Tubulin alpha-1A/beta chain (Sus scrofa, UniProt P02550+P02554) | tubulin polymerisation, inhibitor, absorbance | – | – | 1 µM
Cc1nc2ccccc2n1Cc1ccc(C(=O)NO)cc1 | Histone deacetylase 4 (HDAC4, Homo sapiens, UniProt P56524) | – | – | concentration not given | 1.01 µM
Cc1ncc(CNc2cc(N3CCN(S(=O)(=O)c4ccc(F)cc4)CC3)ccc2[N+](=O)[O-])s1 | Kir1 channel protein | ion flux, inhibitor, fluorescence | – | – | 0.82 µM
O=c1cc(-c2cccc3ccccc23)[nH][nH]1 | Alkaline phosphatase, tissue-nonspecific isozyme (ALPL, Homo sapiens, UniProt P05186) | enzyme activity, inhibitor, colorimetric OD405 | – | HTS library sample, with: 0.5 mM pNPP | 21 µM
CC(=O)N[C@H]1[C@H]([C@H](O)[C@H](O)CO)OC(C(=O)O)=C[C@@H]1N=C(N)N | Solute carrier family 15 member 1 (SLC15A1, Homo sapiens, UniProt P46059) | inhibitor | Caco-2 | up to 5 mM, 30 min, pH 6.0, 37 °C, with: [3H]Gly-Sar 10 µmol/L | no inhibition
Nc1nc2c(ncn2[C@@H]2O[C@H](COP(=O)(O)OP(=O)(O)O)[C@@H](O)[C@H]2O)c(=O)[nH]1 | Tubulin alpha-1B chain/TUBB2B (Bos taurus, UniProt P81947+Q6B856) | assembly, inhibitor, turbidimetry | – | bovine, 2 mM MgCl2, with: paclitaxel 30 µM | 57 ± 4 µM
NC/C(=C\F)COc1cccc(Cn2c(=S)[nH]c(=O)c3[nH]cnc32)c1 | Myeloperoxidase (MPO, Homo sapiens, UniProt P05164) | H2O2 consumption, H2O2 electrode | – | enzyme 10 nM, with: H2O2 50 µM, taurine 5 mM | 0.08 µM
Cc1cccc(Cc2nn(C(C)(C)C)c3ncnc(N)c23)c1 | Ephrin type-B receptor 1 (EPHB1, Homo sapiens, UniProt P54762, T697G) | enzyme activity, inhibitor, radiometric | – | – | 0.005 µM
CCn1c(=O)/c(=C2\Sc3cc(Cl)ccc3N2C)s/c1=C\c1scc[n+]1Cc1ccccc1 | Heat shock 70 kDa protein 1A, with Bag3 (HSPA1A, Homo sapiens, UniProt P0DMV8) | protein-protein interaction, inhibitor, flow cytometry protein interaction | – | with: labeled Bag3 50 nM | 1.6 ± 0.3 µM
Nc1ccccc1NC(=O)c1ccc(CNC(=O)OCc2cccnc2)cc1 | HDAC (Lucilia cuprina egg nuclear extract) | enzyme activity, inhibitor, fluorometric | – | – | 15 µM
COc1ccc([C@H](CC(=O)O)N2CCN(CCCc3ccc4c(n3)NCCC4)C2=O)cn1 | Integrin alpha-V/beta-1 (Homo sapiens, UniProt P05556+P06756) | fibronectin binding, inhibitor, ELISA | – | – | 0.0016 ± 0.0007 µM

Substance | target | test | test system | setting | IC50
CC[C@H](C)C(=O)O[C@H]1CCC=C2C=C[C@H](C)[C@H](CC[C@@H]3C[C@@H](O)CC(=O)O3)[C@H]21 | Potassium channel subfamily K member 18 (KCNK18, Homo sapiens, UniProt Q7Z418) | ion flux, inhibitor | – | – | 9.24 µM
C#CCOc1ccc2c(c1)C(=O)CC(c1ccccc1)O2 (centres unmarked) | Cytochrome P450 2B1 (Cyp2b1, Rattus norvegicus, UniProt P00176) | enzyme activity, inhibitor | supersomes | with: pentoxyresorufin 5 µM | 2.35 µM
COc1ccccc1NC(=S)N1CCc2ccccc2C1 | Urease | enzyme activity, inhibitor, absorbance | – | – | 27.6 µM
N#CC1=C(N)Oc2c(c(=O)[nH]c3ccccc23)C1c1ccc(OCc2cn(Cc3ccc(Br)cc3)nn2)cc1 (centres unmarked) | MAL12 | enzyme activity | – | – | 4.48 ± 0.03 µM
Cc1ccc(-c2cc(CF)nn2-c2ccc(S(N)(=O)=O)cc2)cc1 | Prostaglandin G/H synthase 1 (PTGS1, Ovis aries, UniProt P05979) | enzyme activity, inhibitor | – | – | > 4 µM
OO | Helix pomatia arylsulfatase | enzyme activity | – | 1 h, pH 5.8, 37 °C, with: p-nitrophenyl sulfate | 143 ± 9 µM
CN1CCN(CCC(=O)Nc2ccc3c(c2)Sc2cccc(-c4cc(=O)cc(N5CCOCC5)o4)c2S3)CC1 | Serine/threonine-protein kinase ATR (ATR, Homo sapiens, UniProt Q13535) | enzyme activity, inhibitor | – | – | > 100 µM
FC(F)(F)c1ccc(NC(=S)N2CCc3ccccc3C2)cc1 | Urease | enzyme activity, inhibitor, absorbance | – | – | 18.5 µM
O=c1c(O)c(-c2ccc(O)cc2)oc2c(Br)c(O)cc(O)c12 | α-glucosidase (Saccharomyces cerevisiae) | inhibitor | – | with: pNPG | 173 ± 2.35 µM
COc1ccc(-c2cc(=O)c3c(OC)c(OC)c(OC)c(OC)c3o2)cc1 | Solute carrier organic anion transporter family member 2B1 (SLCO2B1, Homo sapiens, UniProt O94956) | transporter uptake, inhibitor, radiometric | MDCK-II | 3 min, pH 6 | 34 to 40 µM and 20 to 50 µM
C[C@@H]1O[C@H](CNS(=O)(=O)c2ccc(C#Cc3ccccc3)s2)[C@@H](O)[C@H](O)[C@@H]1O | fucose-binding lectin LecB (Pseudomonas aeruginosa, UniProt A0A0H2ZE85) | – | – | – | 0.14 µM
N#Cc1cc(F)cc(OCC(O)Cn2c(=N)n(Cc3ccccc3)c3ccccc32)c1 (centres unmarked) | Inward rectifier potassium channel 4 | ion flux, inhibitor, fluorescence | – | – | 7.15 µM
C=C1C(=O)O[C@H]2[C@H]1CC/C(C)=C/CC[C@@]1(C)O[C@@H]21 | HDAC (Lucilia cuprina egg nuclear extract) | enzyme activity, inhibitor, fluorometric | – | – | > 100 µM
COc1ccc(-c2nnc3n2N=C(c2ccc([N+](=O)[O-])cc2)CS3)cc1 | Urease | enzyme activity, inhibitor | – | – | 6.52 µM
COc1ccc(-c2ccc3ncc4c(c3c2)n(-c2ccc(N3CCNCC3)c(C(F)(F)F)c2)c(=O)n4C)cn1 | Serine-protein kinase ATM (ATM, Homo sapiens, UniProt Q13315) | kinase activity reporter, inhibitor, SPARK reporter imaging | HEK293 | 1 h, with: etoposide 3 µM | ~0.0038 µM and 0.0038 µM
COC(=O)C1=C(C)NC(C)=C([N+](=O)[O-])[C@H]1c1ccccc1C(F)(F)F | Voltage-dependent T-type calcium channel subunit alpha-1H (CACNA1H, Homo sapiens, UniProt O95180) | calcium current, blocker, automated patch clamp | – | tonic block, holding -90 mV | 11.5 ± 0.6 µM
Cn1c(=N)n(CC(O)COc2ccc(C(F)(F)F)cc2)c2ccccc21 (centres unmarked) | KCNJ13 M125R | ion flux, inhibitor | – | – | 5.2 µM
N#Cc1ccc([C@H](Cc2ccc(OS(N)(=O)=O)c(Br)c2)n2cncn2)cc1 | Steryl-sulfatase (STS, Homo sapiens, UniProt P08842) | enzyme activity, inhibitor | – | – | 0.28 ± 0.02 µM
O=C(O)c1cc(O)c2c(c1)C(=O)c1cccc(O)c1C2=O | DNA oxidative demethylase ALKBH2 (ALKBH2, Homo sapiens, UniProt Q6NS38) | 1-methyladenine repair, inhibitor, HPLC | – | 1 h, 37 °C, with: ssDNA 16mer 5 µM | 71.1 µM
Cc1cccc(OCC(O)Cn2c(=N)n(Cc3ccccc3)c3ccccc32)c1 (centres unmarked) | KCNJ13 M125R | ion flux, inhibitor | – | – | 8 µM
[Cl][Yb]([Cl])[Cl] | human MMP-2 catalytic domain | inhibitor | – | pH 7.5, 37 °C, 45 min preincubation, with: DQ-gelatin | 5.03 ± 0.17 µM
CC(Nc1cc(N2CCN(S(=O)(=O)c3ccc(F)cc3)CC2)ccc1[N+](=O)[O-])c1ncco1 (centres unmarked) | Kir1 channel protein | ion flux, inhibitor, fluorescence | – | – | 0.905 µM
COc1cc(C2C(C#N)=C(N)Oc3c2c(=O)[nH]c2ccccc32)ccc1OCc1cn(Cc2ccc(Br)cc2)nn1 (centres unmarked) | MAL12 | enzyme activity | – | – | 14 ± 0.7 µM
Tannic acid | Genome polyprotein, NS2B-NS3 protease (Dengue virus type 1, UniProt P17763) | inhibitor, fluorogenic substrate Bz-Nle-Lys-Arg-Arg-AMC | DENV1 | – | 0.77 ± 0.05 µM
NC(=O)[C@@H]1CC[C@@H]2CN1C(=O)N2OS(=O)(=O)O | dacC (Pseudomonas aeruginosa, UniProt G3XD74) | binding, Bocillin FL competition | Pseudomonas aeruginosa 1771 membranes | PBP 5, with: Bocillin FL 100 µM | > 49 µM
O=C(O)CCNC(=S)NCCCC[C@H](NS(=O)(=O)c1cccc(F)c1)C(=O)N[C@@H](Cc1c[nH]c2ccccc12)C(=O)NC1CCC1 | NAD-dependent protein deacylase sirtuin-5, mitochondrial (SIRT5, Homo sapiens, UniProt Q9NXA8) | desuccinylase activity, inhibitor | – | 30 min, room temperature, with: succinyl peptide substrate, 250 µM NAD+ | 0.102 ± 0.008 µM
